Results pooled from the literature.
A part holds a random share of what one study measured.
UniProt Q9P286, sequence (whole entry, looked up): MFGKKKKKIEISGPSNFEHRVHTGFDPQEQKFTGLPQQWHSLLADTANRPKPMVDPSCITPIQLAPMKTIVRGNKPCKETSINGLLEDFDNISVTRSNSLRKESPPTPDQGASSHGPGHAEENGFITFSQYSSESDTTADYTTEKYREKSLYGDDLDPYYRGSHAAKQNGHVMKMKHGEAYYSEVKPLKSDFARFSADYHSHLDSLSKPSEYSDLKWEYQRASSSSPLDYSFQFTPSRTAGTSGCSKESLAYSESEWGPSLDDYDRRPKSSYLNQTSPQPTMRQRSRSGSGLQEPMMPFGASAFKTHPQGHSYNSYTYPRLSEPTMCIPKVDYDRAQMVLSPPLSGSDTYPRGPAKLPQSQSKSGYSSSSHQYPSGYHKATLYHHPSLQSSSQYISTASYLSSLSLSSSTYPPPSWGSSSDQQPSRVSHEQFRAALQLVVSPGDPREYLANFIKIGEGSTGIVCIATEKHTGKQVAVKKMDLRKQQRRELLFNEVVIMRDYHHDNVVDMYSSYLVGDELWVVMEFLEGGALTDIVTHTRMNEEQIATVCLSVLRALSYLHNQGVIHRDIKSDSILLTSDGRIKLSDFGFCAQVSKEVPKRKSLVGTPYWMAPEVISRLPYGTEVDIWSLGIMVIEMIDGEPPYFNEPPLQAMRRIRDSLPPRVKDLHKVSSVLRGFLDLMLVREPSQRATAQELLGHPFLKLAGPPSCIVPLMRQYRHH
UniProt Q99558, sequence (whole entry, looked up): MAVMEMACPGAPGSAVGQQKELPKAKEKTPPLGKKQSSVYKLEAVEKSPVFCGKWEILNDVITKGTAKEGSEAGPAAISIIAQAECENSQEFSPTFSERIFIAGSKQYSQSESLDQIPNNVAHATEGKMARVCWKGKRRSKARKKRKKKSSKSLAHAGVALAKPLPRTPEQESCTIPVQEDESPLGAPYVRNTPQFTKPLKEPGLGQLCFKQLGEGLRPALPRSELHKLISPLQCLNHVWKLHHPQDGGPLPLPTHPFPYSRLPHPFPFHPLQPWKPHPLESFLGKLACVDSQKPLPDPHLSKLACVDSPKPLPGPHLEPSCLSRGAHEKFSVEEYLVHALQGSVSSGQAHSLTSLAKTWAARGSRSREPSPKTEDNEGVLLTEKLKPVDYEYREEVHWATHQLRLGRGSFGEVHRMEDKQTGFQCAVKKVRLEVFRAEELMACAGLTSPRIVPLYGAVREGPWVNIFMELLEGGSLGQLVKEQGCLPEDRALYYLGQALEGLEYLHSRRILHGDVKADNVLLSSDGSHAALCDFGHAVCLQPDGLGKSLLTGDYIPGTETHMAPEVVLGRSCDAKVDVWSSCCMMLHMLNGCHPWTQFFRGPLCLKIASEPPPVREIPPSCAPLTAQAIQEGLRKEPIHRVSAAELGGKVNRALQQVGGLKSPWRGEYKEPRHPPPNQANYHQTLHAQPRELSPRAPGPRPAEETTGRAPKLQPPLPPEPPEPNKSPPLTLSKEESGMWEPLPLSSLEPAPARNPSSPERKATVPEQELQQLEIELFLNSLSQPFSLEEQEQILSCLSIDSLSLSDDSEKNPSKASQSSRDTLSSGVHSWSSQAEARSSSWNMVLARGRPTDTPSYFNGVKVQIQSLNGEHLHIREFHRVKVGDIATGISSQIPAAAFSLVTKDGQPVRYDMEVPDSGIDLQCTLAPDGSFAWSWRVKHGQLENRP
UniProt Q06418, sequence (whole entry, looked up): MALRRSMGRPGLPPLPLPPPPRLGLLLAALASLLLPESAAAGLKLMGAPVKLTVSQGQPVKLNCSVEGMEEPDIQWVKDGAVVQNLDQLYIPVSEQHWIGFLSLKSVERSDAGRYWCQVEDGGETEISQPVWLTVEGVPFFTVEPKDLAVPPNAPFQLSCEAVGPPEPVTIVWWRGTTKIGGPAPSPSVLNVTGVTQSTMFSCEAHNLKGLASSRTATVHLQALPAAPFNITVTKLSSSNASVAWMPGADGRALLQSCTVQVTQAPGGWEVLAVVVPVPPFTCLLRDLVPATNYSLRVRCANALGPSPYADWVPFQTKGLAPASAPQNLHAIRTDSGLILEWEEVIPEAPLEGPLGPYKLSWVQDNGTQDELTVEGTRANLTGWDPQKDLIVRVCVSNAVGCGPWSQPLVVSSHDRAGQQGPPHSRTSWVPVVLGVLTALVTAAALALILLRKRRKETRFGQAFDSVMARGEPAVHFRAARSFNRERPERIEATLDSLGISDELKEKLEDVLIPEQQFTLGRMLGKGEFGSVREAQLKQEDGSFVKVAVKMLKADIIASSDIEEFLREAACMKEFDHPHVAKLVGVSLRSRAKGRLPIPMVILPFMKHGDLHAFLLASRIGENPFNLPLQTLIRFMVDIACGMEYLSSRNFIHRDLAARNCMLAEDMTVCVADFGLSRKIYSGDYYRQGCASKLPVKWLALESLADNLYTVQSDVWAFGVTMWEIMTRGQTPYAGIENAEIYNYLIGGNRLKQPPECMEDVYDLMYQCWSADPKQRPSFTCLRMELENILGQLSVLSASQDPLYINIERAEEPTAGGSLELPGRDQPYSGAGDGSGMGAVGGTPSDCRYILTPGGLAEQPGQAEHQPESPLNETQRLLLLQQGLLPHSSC
UniProt Q9HC98, sequence (whole entry, looked up): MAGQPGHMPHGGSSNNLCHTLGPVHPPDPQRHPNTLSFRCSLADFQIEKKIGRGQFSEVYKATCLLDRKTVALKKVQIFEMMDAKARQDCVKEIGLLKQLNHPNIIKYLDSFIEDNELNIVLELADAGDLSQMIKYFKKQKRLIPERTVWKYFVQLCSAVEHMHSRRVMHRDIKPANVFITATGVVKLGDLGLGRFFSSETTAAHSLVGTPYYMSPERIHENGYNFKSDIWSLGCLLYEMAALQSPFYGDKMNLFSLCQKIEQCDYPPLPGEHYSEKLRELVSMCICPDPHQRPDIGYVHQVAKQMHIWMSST
UniProt O94768, sequence (whole entry, looked up): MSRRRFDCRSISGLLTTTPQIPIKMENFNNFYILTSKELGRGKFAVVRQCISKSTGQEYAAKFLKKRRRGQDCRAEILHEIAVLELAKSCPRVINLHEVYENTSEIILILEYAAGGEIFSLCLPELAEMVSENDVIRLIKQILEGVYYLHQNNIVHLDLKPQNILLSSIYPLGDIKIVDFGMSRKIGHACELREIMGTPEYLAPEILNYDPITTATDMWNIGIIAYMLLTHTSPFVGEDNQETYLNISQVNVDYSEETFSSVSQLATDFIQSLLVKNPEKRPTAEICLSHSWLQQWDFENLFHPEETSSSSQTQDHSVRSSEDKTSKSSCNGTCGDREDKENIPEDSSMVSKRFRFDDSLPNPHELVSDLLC
UniProt P07333, sequence (whole entry, looked up): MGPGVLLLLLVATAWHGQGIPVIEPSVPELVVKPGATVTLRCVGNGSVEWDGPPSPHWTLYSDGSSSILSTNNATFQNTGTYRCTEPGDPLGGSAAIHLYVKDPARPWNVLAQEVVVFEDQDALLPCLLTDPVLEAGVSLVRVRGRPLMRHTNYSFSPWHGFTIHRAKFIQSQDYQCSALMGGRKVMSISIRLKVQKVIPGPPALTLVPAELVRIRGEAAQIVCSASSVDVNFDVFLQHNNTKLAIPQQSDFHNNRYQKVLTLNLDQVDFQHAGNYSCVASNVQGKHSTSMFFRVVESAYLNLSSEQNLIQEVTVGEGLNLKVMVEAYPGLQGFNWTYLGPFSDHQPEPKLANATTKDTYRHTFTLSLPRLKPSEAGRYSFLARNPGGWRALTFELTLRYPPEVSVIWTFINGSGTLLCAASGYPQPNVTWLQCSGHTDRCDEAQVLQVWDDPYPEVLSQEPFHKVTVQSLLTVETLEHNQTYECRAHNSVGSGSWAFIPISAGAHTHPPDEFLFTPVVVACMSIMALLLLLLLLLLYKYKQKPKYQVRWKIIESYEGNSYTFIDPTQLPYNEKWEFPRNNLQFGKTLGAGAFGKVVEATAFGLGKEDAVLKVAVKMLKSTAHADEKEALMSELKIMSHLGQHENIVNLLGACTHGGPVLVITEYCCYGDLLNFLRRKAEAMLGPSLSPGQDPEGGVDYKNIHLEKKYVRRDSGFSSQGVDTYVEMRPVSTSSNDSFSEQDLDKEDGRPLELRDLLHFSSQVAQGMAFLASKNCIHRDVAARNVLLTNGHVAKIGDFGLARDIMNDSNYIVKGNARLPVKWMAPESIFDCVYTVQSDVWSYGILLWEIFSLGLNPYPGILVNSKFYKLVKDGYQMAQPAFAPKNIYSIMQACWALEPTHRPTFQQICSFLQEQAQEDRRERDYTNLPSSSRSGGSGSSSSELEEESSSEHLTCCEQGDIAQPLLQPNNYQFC
UniProt Q6PHR2, sequence (whole entry, looked up): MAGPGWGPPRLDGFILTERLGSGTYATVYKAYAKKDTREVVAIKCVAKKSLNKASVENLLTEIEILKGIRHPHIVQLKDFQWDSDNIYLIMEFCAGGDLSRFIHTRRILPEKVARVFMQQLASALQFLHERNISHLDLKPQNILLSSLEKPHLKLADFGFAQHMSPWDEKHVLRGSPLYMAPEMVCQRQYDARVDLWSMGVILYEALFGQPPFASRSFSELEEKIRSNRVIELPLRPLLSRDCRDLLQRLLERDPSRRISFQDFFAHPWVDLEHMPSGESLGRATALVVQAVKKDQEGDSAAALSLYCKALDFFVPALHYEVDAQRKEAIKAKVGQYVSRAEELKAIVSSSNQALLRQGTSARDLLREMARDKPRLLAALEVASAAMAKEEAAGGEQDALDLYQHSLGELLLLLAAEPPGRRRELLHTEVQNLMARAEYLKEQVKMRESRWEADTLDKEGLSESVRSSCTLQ
UniProt P11309, sequence (whole entry, looked up): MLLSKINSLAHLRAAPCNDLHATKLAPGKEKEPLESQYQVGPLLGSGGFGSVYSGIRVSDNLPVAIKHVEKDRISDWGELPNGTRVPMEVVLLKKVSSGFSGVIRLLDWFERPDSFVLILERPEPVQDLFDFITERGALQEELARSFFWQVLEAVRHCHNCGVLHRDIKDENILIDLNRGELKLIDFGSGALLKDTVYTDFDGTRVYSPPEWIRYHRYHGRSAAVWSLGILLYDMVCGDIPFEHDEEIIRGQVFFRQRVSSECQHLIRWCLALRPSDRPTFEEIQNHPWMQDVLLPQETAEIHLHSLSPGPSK

Study 1
Target: Prothrombin, mature alpha-thrombin (F2, Homo sapiens, UniProt P00734)
Technique: aptamer microarray, sandwich
Form: DNA with 2'F-ANA
Sample: in vitro
Tested at: 200 nM
Notes: whole 15-mer aptamer, many near background
Together with: Cy3 exosite-II aptamer, 400 nM
Reading: higher = stronger binding
Oligonucleotide: GGTTGGTGTGGTTGG
| Modification | mean fluorescence intensity |
| --- | --- |
| 2'F-ANA at 1 3 4 6 8 9 12 13 14 15 | 73.5 a.u. |
| 2'F-ANA at 1 3 4 5 6 7 9 12 13 14 | 48.5 a.u. |
| 2'F-ANA at 4 6 | 365 a.u. |
| 2'F-ANA at 3 4 7 11 12 | 1010 a.u. |
| 2'F-ANA at 2 3 6 8 13 14 15 | 369 a.u. |
| 2'F-ANA at 1 3 7 10 12 13 15 | 119 a.u. |
| 2'F-ANA at 4 6 8 9 11 12 14 15 | 86.9 a.u. |
| 2'F-ANA at 1 2 3 9 13 | 147 a.u. |

Study 2
Target: Histone acetyltransferase KAT6A, winged helix 1, GST fusion (KAT6A, Homo sapiens, UniProt Q92794, residues 1-85)
Technique: protein binding microarray
Form: double-stranded DNA, one strand shown
Sample: in vitro
Tested at: not given
Notes: 8-mer, flanks averaged, mean of 2 arrays, mostly near background
Relative to: not given
Reading: higher = stronger binding
Residues (chain): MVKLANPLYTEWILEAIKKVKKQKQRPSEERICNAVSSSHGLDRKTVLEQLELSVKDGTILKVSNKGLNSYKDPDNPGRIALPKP
| Oligonucleotide | E-score |
| --- | --- |
| CCGCGTAC | 0.319 |
| CGCGGGGC | 0.349 |
| ACATAAAG | -0.166 |
| GCCTGCAC | -0.0172 |
| CAATAAAA | -0.282 |
| GCTATTTA | -0.0627 |
| CAACCCAG | -0.121 |
| ATTCGGCC | 0.184 |

Study 3
SMILES: CC1=C(C#N)[C@@H](c2ccc3[nH]nc(C)c3c2)C(C#N)=C(c2ccc(Cl)cc2)N1
Read-out: cell-free assay
Technique: competition with immobilised ligand
Tested at: 1 µM
| target | remaining binding [%] |
| --- | --- |
| PAK5 (Homo sapiens, UniProt Q9P286) | 100 |
| TYRO3 (Homo sapiens, UniProt Q06418) | 74.4 |
| FLT3 (Homo sapiens, UniProt P36888, N841I) | 100 |
| STK17B (Homo sapiens, UniProt O94768) | 100 |
| PIM1 (Homo sapiens, UniProt P11309) | 100 |
| CSF1R (Homo sapiens, UniProt P07333) | 100 |
| MAPK6 (Homo sapiens, UniProt Q16659) | 100 |

Study 4
Compound: COc1cc(Nc2c(C#N)cnc3cc(OCCCN4CCN(C)CC4)c(OC)cc23)c(Cl)cc1Cl
Read-out: enzyme activity
Mode: inhibitor
Tested at: 0.5 µM
Relative to: control
| target | remaining activity [%] |
| --- | --- |
| FGFR3 (Homo sapiens, UniProt P22607) | 82.6 |
| WEE1 (Homo sapiens, UniProt P30291) | 40.5 |
| FGFR1 (Homo sapiens, UniProt P11362) | 64.4 |
| MERTK (Homo sapiens, UniProt Q12866) | 28.9 |
| ULK3 (Homo sapiens, UniProt Q6PHR2) | 100 |
| FRK (Homo sapiens, UniProt P42685) | 29.2 |
| TAOK2 (Homo sapiens, UniProt Q9UL54) | 65.4 |
| MAP3K14 (Homo sapiens, UniProt Q99558) | 129 |
| NEK6 (Homo sapiens, UniProt Q9HC98) | 85.3 |
| MAP2K2 (Homo sapiens, UniProt P36507) | 8.43 |
| ULK2 (Homo sapiens, UniProt Q8IYT8) | 92.2 |
